Assay results pooled from the literature.
Lines come from different studies, so protocols differ.
Organism: Escherichia coli

The MIC of `COc1ccc2ccc(O)c(/C=N/[C@H]3CCCC[C@H]3/N=C/c3c(C)cccc3O)c2c1` is reported as greater than 40 µM (microbial growth, broth dilution; clinical isolate).
`CCCCCCn1cc[n+](CCCCCCCCOc2cc(OCCCCCCCC[n+]3ccn(CCCCCC)c3)cc(OCCCCCCCC[n+]3ccn(CCCCCC)c3)c2)c1.[Br-].[Br-].[Br-]` gave an MIC of 1 µM (MC4100).
`CC1(C)[C@H](NC(=O)/C(=N\OCC(=O)N2CCC[C@@H]2C(=O)O)c2nsc(N)n2)C(=O)N1OS(=O)(=O)O` gave an MIC of 1 µg/mL (agar dilution; 16-1, ESBL-producing).
The MIC of `CCCCCC(=O)Oc1c(C)c(OC)c2c(/C=C/c3ccccc3)c(CCCC)c(=O)oc2c1C` is reported as 5000 µg/mL (microbial growth, broth dilution; ATCC25922).
With `c1ccc(CSc2nc3ccccc3cc2CNCCC2CCN(C3CCCC3)CC2)cc1` the MIC was 64 µg/mL (microbial growth, broth dilution).
`CCCCCCCCCCCCCCCCCCn1cc(CN(CCC(=O)NCCN(CCC(=O)NCCN(CCC(=O)NCCN(C)C)CCC(=O)NCCN(C)C)CCC(=O)NCCN(CCC(=O)NCCN(C)C)CCC(=O)NCCN(C)C)CCC(=O)NCCN(CCC(=O)NCCN(CCC(=O)NCCN(C)C)CCC(=O)NCCN(C)C)CCC(=O)NCCN(CCC(=O)NCCN(C)C)CCC(=O)NCCN(C)C)nn1` has an MIC of 6 µg/mL (microbial growth, broth dilution; MG1655; 18 h).
`CC[C@H]1OC(=O)[C@H](C)[C@@H](OC(=O)Cc2ccccc2Cl)[C@H](C)[C@@H](O[C@@H]2O[C@H](C)C[C@H](N(C)C)[C@H]2O)[C@](C)(OC)C[C@@H](C)C(=O)[C@H](C)[C@@H](O)[C@]1(C)O` has an MIC of 2 µg/mL (tolC).
With `C=C[C@H]1CC1(NC(=O)C12CC(NC(=O)c3ccc(C#N)cc3)(C1)C2)C(=O)Nc1ccc(C(=O)Nc2ccc(C(=O)Nc3ccc(C(=O)O)cc3)c(O)c2OC(C)C)cc1` (some centres unmarked) the MIC was 0.01 µg/mL (BW25113 ΔacrB).
The MIC of `COc1c(NC(=O)c2ccc(NC(=O)[C@H](Cc3c[nH]nn3)NC(=O)c3ccc(NC(=O)/C(C)=C/c4ccc(O)cc4)cc3)cc2)ccc(C(=O)Nc2ccc(C(=O)O)cc2)c1O` is reported as 0.125 µg/mL (broth microdilution; BW25113).
For `CC[C@H]1OC(=O)[C@H](C)[C@@H](OC(=O)Cc2cccc3ccccc23)[C@H](C)[C@@H](O[C@@H]2O[C@H](C)C[C@H](N(C)C)[C@H]2O)[C@](C)(OC)C[C@@H](C)C(=O)[C@H](C)[C@@H](O)[C@]1(C)O`, the MIC was greater than 32 µg/mL (lpxC).
The MIC of `C#CCNC(=O)[C@H]1NC(=O)[C@H]2NC(=O)[C@H](NC(=O)[C@@H]3NC(=O)[C@H](CC(N)=O)NC(=O)[C@H](NC(=O)[C@@H](CC(C)C)NC)[C@H](O)c4ccc(c(Cl)c4)Oc4cc3cc(c4O[C@@H]3O[C@H](CO)[C@@H](O)[C@H](O)[C@H]3O[C@H]3C[C@](C)(N)[C@H](O)[C@H](C)O3)Oc3ccc(cc3Cl)[C@H]2O)c2ccc(O)c(c2)-c2c(O)cc(O)cc21` is reported as 64 µg/mL (broth microdilution; ATCC 25922; 18 to 20 h).
The MIC of `Cn1nnnc1SCc1nn(C)c2nc(N)[nH]c(=O)c2c1=O` is reported as 25 µg/mL (microbial growth, broth dilution; BW25113; 18 h).
`COc1ccc2ccc(O)c(/C=N/[C@H]3CCCC[C@H]3/N=C/c3cc(C(C)(C)C)ccc3O)c2c1` has an MIC of greater than 40 µM (microbial growth, broth dilution).
For `COc1c(C)c(OS(=O)(=O)c2ccccc2)c(C)c(O)c1C(=O)/C=C/c1ccccc1`, the MIC was 5000 µg/mL (microbial growth, broth dilution; ATCC25922).
The MIC of `CCCCCCCCCCCC[N+](C)(C)CCCCCCCCCCOc1cc(OCCCCCCCCCC[N+](C)(C)CCCCCCCCCCCC)cc(OCCCCCCCCCC[N+](C)(C)CCCCCCCCCCCC)c1.[Br-].[Br-].[Br-]` is reported as 63 µM (MC4100).
`CC[C@H](C)[C@H](N)C(=O)N1CCC[C@H]1C(=O)N[C@@H](Cc1ccccc1)C(=O)N[C@@H](Cc1c[nH]c2ccccc12)C(=O)N[C@@H](CCCNC(=N)N)C(=O)N[C@@H](Cc1c[nH]c2ccccc12)C(=O)N[C@@H](CC(C)C)C(=O)N[C@@H](CC(C)C)C(=O)N[C@@H](CCC(N)=O)C(=O)N[C@@H](CCCNC(=N)N)C(=O)N[C@@H](CC(C)C)C(=O)N1CCC[C@H]1C(=O)NCC(=O)O` has an MIC of 128 µg/mL (broth microdilution; ATCC 25922; 16 h, 37 °C, cation-adjusted Mueller-Hinton broth).
The MIC of `CC[C@H](C)[C@H](NC(=O)[C@@H](CCCNC(=N)N)NC(=O)[C@H](CCCNC(=N)N)NC(=O)[C@@H]1CCCN1C(=O)[C@@H]1CCCN1C(=O)[C@H](CCCNC(=N)N)NC(=O)[C@@H]1CCCN1C(=O)[C@H](CCCNC(=N)N)NC(=O)[C@@H]1CCCN1C(=O)[C@H](CC(C)C)NC(=O)[C@H](Cc1ccc(O)cc1)NC(=O)[C@@H]1CCCN1C(=O)[C@@H]1CCCN1C(=O)[C@H](CCCCN)NC(=O)[C@H](CC(=O)O)NC(=O)[C@@H](N)C(C)C)C(=O)N[C@@H](Cc1ccc(O)cc1)C(=O)N[C@@H](CC(N)=O)C(=O)N[C@H](CCCNC(=N)N)C(N)=O` is reported as 8 µg/mL (broth microdilution; ATCC 25922; 18 h, 37 °C, 25% MHB2).
`CC1(C)[C@H](NC(=O)/C(=N\OC2(C(=O)O)CCCC2)c2csc(N)n2)C(=O)N1OS(=O)(=O)O` gave an MIC of 0.25 µg/mL (agar dilution; 16-1, ESBL-producing).
For `COc1ccc2ccc(O)c(/C=N/[C@H]3CCCC[C@H]3/N=C/c3cccc(F)c3O)c2c1`, the MIC was greater than 40 µM (microbial growth, broth dilution; clinical isolate).
With `CCCCCCCC[N+](C)(C)CCCCCCCCCCOc1cc(OCCCCCCCCCC[N+](C)(C)CCCCCCCC)cc(OCCCCCCCCCC[N+](C)(C)CCCCCCCC)c1.[Br-].[Br-].[Br-]` the MIC was 16 µM (MC4100).
The MIC of `C/C(=C\c1ccc(O)cc1)C(=O)Nc1ccc(C(=O)N[C@@H](Cc2c[nH]nn2)C(=O)Nc2ccc(C(=O)Nc3ccc(C(=O)Nc4ccc(C(=O)O)cc4)c(O)c3)cc2)cc1` is reported as 0.125 µg/mL (broth microdilution; ciprofloxacin-sensitive).
The MIC of `Cn1nc(CCCC(=O)O)c(=O)c2c(=O)[nH]c(N)nc21` is reported as 25 µg/mL (microbial growth, broth dilution; BW25113; 18 h).
`C[C@H](CS)C(=O)Nc1cccc(-c2nn[nH]n2)c1` gave an MIC of less than 0.125 µg/mL (broth microdilution, measured: meropenem; DH5α pET28-lacUV5 control; 100 µM, with: meropenem).
`COc1cc(C(=O)O)ccc1NC(=O)c1ccc(NC(=O)c2ccc(NC(=O)[C@H](Cc3c[nH]nn3)NC(=O)c3ccc(NC(=O)/C(C)=C/c4ccc(O)cc4)cc3)cc2)cc1` gave an MIC of 0.25 µg/mL (broth microdilution; ciprofloxacin-sensitive).
`CC[C@H]1OC(=O)[C@H](C)[C@@H](OC(=O)c2ccc(N)cc2)[C@H](C)[C@@H](O[C@@H]2O[C@H](C)C[C@H](N(C)C)[C@H]2O)[C@](C)(OC)C[C@@H](C)C(=O)[C@H](C)[C@@H](O)[C@]1(C)O` gave an MIC of 32 µg/mL (tolC).
For `COc1c(NC(=O)c2ccc(NC(=O)c3ccc(NC(=O)[C@H](Cc4c[nH]nn4)NC(=O)c4ccc(NC(=O)/C(C)=C/c5ccc(O)cc5)cc4)cc3)cc2)ccc(C(=O)O)c1O`, the MIC was 0.25 µg/mL (broth microdilution; ciprofloxacin-sensitive).
`CC(C)C[C@@H]1NC(=O)[C@@H](CC(C)C)NC(=O)[C@H](CCN)NC(=O)[C@@H](NC(=O)[C@H](CCN)NC(=O)[C@@H](NC(=O)CCOCCOCCOCCN=[N+]=[N-])[C@@H](C)O)CCNC(=O)[C@H]([C@@H](C)O)NC(=O)[C@H](CCN)NC(=O)[C@H](CCN)NC1=O` has an MIC of 128 µg/mL (broth microdilution; ATCC 25922; 18 to 20 h).
For `COc1cc(C(=O)O)ccc1NC(=O)c1ccc(NC(=O)c2ccc(NC(=O)[C@H](Cc3c[nH]nn3)NC(=O)c3ccc(NC(=O)/C(C)=C/c4ccc(O)cc4)cc3)cc2)c(OC)c1`, the MIC was 0.5 µg/mL (broth microdilution; ciprofloxacin-sensitive).
`COc1ccc(/N=N/C(=S)N2CCCCC2)cc1` gave an MIC of greater than 50 µM (microbial growth, broth dilution; ATCC 8739, ATCC8739; 24 h).
`CCOc1c(NC(=O)c2ccc(NC(=O)[C@H](Cc3c[nH]nn3)NC(=O)c3ccc(NC(=O)/C(C)=C/c4ccc(O)cc4)cc3)cc2)ccc(C(=O)Nc2ccc(C(=O)O)c(O)c2OC)c1O` has an MIC of 0.031 µg/mL (broth microdilution; ciprofloxacin-sensitive).
`CCC(CC)c1cc(CCN2CCCN(C(=O)OC(C)(C)C)CC2)nc(-c2cccnc2)n1` has an MIC of greater than 64 µg/mL (microbial growth, broth dilution; ATCC25922).
`COc1c(NC(=O)c2ccc(NC(=O)c3ccc(NC(=O)[C@H](Cc4c[nH]nn4)NC(=O)c4ccc(NC(=O)/C(C)=C/c5ccc(O)cc5)cc4)cc3)c(OC)c2O)ccc(C(=O)O)c1O` gave an MIC of 0.016 µg/mL (microbial growth, broth dilution).
For `CC[C@H]1OC(=O)[C@H](C)C(=O)[C@H](C)[C@@H](O[C@@H]2O[C@H](C)C[C@H](N(C)C)[C@H]2O)[C@](C)(OC)C[C@@H](C)C(=O)[C@H](C)[C@H]2N(CCCCn3cnc(-c4cccnc4)c3)C(=O)O[C@]12C`, the MIC was greater than 32 µg/mL (lpxC).
The MIC of `COc1cc(C(=O)O)ccc1NC(=O)c1ccc(NC(=O)c2ccc(NC(=O)[C@H](Cc3c[nH]nn3)NC(=O)c3ccc(NC(=O)/C(C)=C/c4ccc(O)cc4)cc3)cc2)cc1O` is reported as 0.125 µg/mL (broth microdilution; DSM 1116).
For `CCn1cc(/C=C/c2ccc3ccccc3[n+]2CC)c2ccccc21`, the MIC was 4 µg/mL (microbial growth, broth dilution; 780).
